Published values pooled from the literature.
Lines come from different studies, so protocols differ. “And” joins repeats or separate records; there may be more than shown. ± marks the error that the study gave.
USP14: Ubiquitin carboxyl-terminal hydrolase 14 (USP14, Homo sapiens, UniProt P54578)
F12: Coagulation factor XII (F12, Homo sapiens, UniProt P00748)
Rac GTPase-activating protein 1: Rac GTPase-activating protein 1 (Homo sapiens, UniProt Q9H0H5)
HTR7: 5-hydroxytryptamine receptor 7 (HTR7, Homo sapiens, UniProt P34969)

Compound = O=C(/C=C/c1cccc(OS(=O)(=O)Oc2ccc(Br)cc2)c1)NO; target = HDAC7 (Homo sapiens, UniProt Q8WUI4); test = enzyme activity, inhibitor, fluorescence; setting = 10 µM; inhibition = 36%
Compound = O=C(Nc1ccc(C(F)F)cc1)[C@H](CC1CCCCC1)Nc1nn2c(=O)ccnc2s1; target = Serine/threonine-protein phosphatase 5 (Homo sapiens, UniProt P53041); test = enzyme activity, inhibitor; setting = 10 µM; inhibition = -6%
Compound = O=C(O)CN1C(=O)Cc2ccccc2C1=O; target = USP14; test = enzyme activity, inhibitor; setting = 17 µM; inhibition = 18%
Compound = C[C@H](NC(=O)[C@H](CC(=O)NCC(C)(C)C)NC(=O)CCc1ccccc1)C(=O)NCc1ccccc1Cl; target = F12; test = enzyme activity, inhibitor; setting = 100 µM; inhibition = 38%
Compound = C/C=C/C(=O)Nc1ccc2nc(NCCCCCN(C)C)nc(NCCCCCCN(C)C)c2c1; target = SETD7 (Homo sapiens, UniProt Q8WTS6); test = enzyme activity, inhibitor, radiometric; setting = 50 µM; inhibition = 62%
Compound = O=C1CC(=O)N(c2ccccc2)N1c1ccccc1; target = Rac GTPase-activating protein 1; test = GAP activity, malachite green phosphate; setting = concentration not given, orthogonal retest; inhibition = 47.5%
Compound = O=C(CSc1nnc2c(n1)CCCC2)c1ccc(N2CCCC2=O)cc1; target = USP14; test = enzyme activity, inhibitor; setting = 17 µM; inhibition = 58%
Compound = C=CC(=O)N1Cc2nc(-c3cc(-c4cc(Cl)cnc4Cl)c(F)cc3F)n(-c3ccncn3)c2C1; target = 5'-AMP-activated protein kinase catalytic subunit alpha-1, with beta2, gamma3 (PRKAA1, Homo sapiens, UniProt Q13131); test = kinome panel; setting = 1 µM; inhibition = 10.3%
Compound = c1ccc(-c2cnc3nonc3n2)cc1; target = USP14; test = enzyme activity, inhibitor; setting = 17 µM; inhibition = 8%
Compound = O=c1ccsn1Cc1ccccc1; target = Rac GTPase-activating protein 1; test = GAP activity, malachite green phosphate; setting = concentration not given, orthogonal retest; inhibition = 108%
Compound = CN(Cc1ccc(/C=C/C(=O)NO)cc1)CC12CC3CC(CC(C3)C1)C2; target = human AT2 receptor; test = radioligand binding; setting = 0.05 µM; inhibition = 45%
Compound = C[Si]1(C[C@H](CN)CC(=O)O)CCCC1; target = GABAA receptor, rat; test = binding, radioligand binding; setting = 70 µM, added: [3H]muscimol; inhibition = 3%
Compound = Cc1cc(C)cc(COc2cc3c(cc2OCc2cc(C)cc(C)c2)[C@@H]2C[C@](O)(Cc4cn(Cc5ccc(F)cc5)nn4)C[C@H](C)N2CC3)c1 (single isomer, unassigned); target = Rab GDP dissociation inhibitor beta, with Rab1A (Homo sapiens, UniProt P50395); test = GDI2-Rab1A interaction, NanoLuc complementation; setting = 6.25 µM; inhibition = 90.3%
Compound = CCn1cc(C(=O)O)c(=O)c2c(N)c(F)c(NC3CCCCC3)cc21; target = 5'-AMP-activated protein kinase catalytic subunit alpha-1, with beta2, gamma2 (PRKAA1, Homo sapiens, UniProt Q13131); test = kinase activity; setting = 0.1 µM, added: ATP at Km; inhibition = -1%
Compound = CO[C@@H](C)c1c(NC(=O)Nc2cnc(-n3nccn3)c(C(F)(F)F)c2)cnc2sc(C)nc12; target = AVPR1A (Homo sapiens, UniProt P37288); test = ligand displacement, radioligand; setting = 10 µM; inhibition = 10.8%
Compound = C[Si](C)(C)C[C@@H](CN)CC(=O)O; target = glycine transporter, mouse; test = binding, radioligand binding; setting = 75 µM, added: [3H]glycine; inhibition = -3%
Compound = Cc1nc2c(F)cc(-c3nc(Nc4ccc(CNC(=O)CCCCCCC(=O)NO)cc4)ncc3F)cc2n1C(C)C; target = Phosphatidylinositol 4,5-bisphosphate 3-kinase catalytic subunit alpha isoform, with p65 alpha (PIK3CA, Homo sapiens, UniProt P42336); test = enzyme activity; setting = 1 µM, p110α/p65α)(h human; inhibition = 37%
Compound = O=C(O)C1Nc2ccc(Cl)cc2C2C=CCC12 (centres unmarked); target = Rac GTPase-activating protein 1; test = GAP activity, malachite green phosphate; setting = concentration not given, orthogonal retest; inhibition = 59.5%
Compound = CCOC(=O)C(C#N)C1(O)C(=O)c2ccccc2C1=O (centres unmarked); target = USP14; test = enzyme activity, inhibitor; setting = 17 µM; inhibition = 43%
Compound = Cl.Cl.N[C@@H](C(=O)N1CCCC1)C1CCN(c2nccc3c(-c4ncc(Cl)cc4Cl)cccc23)CC1; target = PADI4 (Homo sapiens, UniProt Q9UM07); test = enzyme activity, inhibitor; setting = 75.9 pM, added: Ca2+ 0.4 mM; inhibition = -6.37% and 1.41% and -7.98%
Compound = COc1ccc(S(=O)(=O)N2CCc3ccccc3C2)cc1N1CCN(C(=O)c2ccc(F)cc2C(F)(F)F)CC1; target = Oprk1 (Rattus norvegicus, UniProt P34975); test = cell-free assay; setting = 1 µM; inhibition = 0.8%
Compound = C=CCNC(=O)[C@H](CCc1ccccc1)NC(=O)[C@H](CC(=O)NCC(C)(C)C)NC(=O)CCc1ccccc1; target = F12; test = enzyme activity, inhibitor; setting = 100 µM; inhibition = 42%
Compound = O=c1cnnc(N/N=C/C=C/c2ccccc2)[nH]1; target = USP14; test = enzyme activity, inhibitor; setting = 17 µM; inhibition = 3%
Compound = CC1Cc2ccccc2N1C(=O)CN1CCN(Cc2ccccc2)CC1 (centres unmarked); target = HTR7; test = radioligand binding; setting = concentration not given, added: [3H]LSD; inhibition = 67.9%
Compound = CC(=O)c1ccc2c3c(cccc13)NC(C)=N2; target = Rac GTPase-activating protein 1; test = GAP activity, malachite green phosphate; setting = concentration not given, orthogonal retest; inhibition = 40.2%
Compound = C[C@@H](O)[C@H](NC(=O)c1ccc(OCc2ccccc2)cc1)C(=O)N[C@@H](CCc1ccccc1)C(=O)NCc1ccccc1Cl; target = F12; test = enzyme activity, inhibitor; setting = 100 µM; inhibition = 36%
Compound = CC1=NN(c2ccc(N)cc2)C(=O)C1; target = USP14; test = enzyme activity, inhibitor; setting = 17 µM; inhibition = 91%
Compound = O=C1c2sc(-c3ccc(N4CCC(CO)CC4)nc3F)nc2CCN1c1cccnc1; target = HTR7; test = ligand displacement, radioligand; setting = 1 µM; inhibition = 0%
Compound = CCOC(=O)C(Sc1nnc(-c2c[nH]c3ccccc23)n1C)C(=O)OCC; target = Rac GTPase-activating protein 1; test = enzyme activity, inhibitor, ADP detection; setting = 10 µM; inhibition = 87%
Compound = CC(=O)Nc1cc(OC(C)=O)c2nonc2c1OC(C)=O; target = USP14; test = enzyme activity, inhibitor; setting = 17 µM; inhibition = 64%
Compound = Cn1c(CNc2ccccc2Cl)nc2ccccc21; target = Rac GTPase-activating protein 1; test = enzyme activity, inhibitor, ADP detection; setting = 20 µM; inhibition = 33.4%
Compound = COCC(=O)N1CCc2cc(-c3csc(NC(=O)c4cc(OC)cc(OC)c4)n3)ccc21; target = GABBR1 (Homo sapiens, UniProt Q9UBS5); test = binding, radioligand binding; test system = human; setting = 10 µM; inhibition = -12%
Compound = COc1ccc(C#CC2=C[C@H]3C[C@@]4(OC(=O)C=C24)[C@H]2CC[C@H](C(OC)OC)N32)cc1; target = PTGS1 (Homo sapiens, UniProt P23219); test = enzyme activity, inhibitor; setting = 10 µM; inhibition = 2%
Compound = Cc1ccc(C(C2=C(O)CC(C)(C)CC2=O)C2=C(O)CC(C)(C)CC2=O)o1; target = Rac GTPase-activating protein 1; test = GAP activity, malachite green phosphate; setting = concentration not given, orthogonal retest; inhibition = 74.4%
Compound = O=C1CO[C@H](CNC(=O)C2(c3ccc(Cl)cc3)CC2)CN1C1Cc2ccccc2C1; target = CCR4 (Homo sapiens, UniProt P51679); test = β-arrestin recruitment, antagonist; setting = 1 µM; inhibition = -2%
Compound = CC(C)[C@@H](NC(=O)C(=O)O)C(=O)O; target = KDM4E (Homo sapiens, UniProt B2RXH2); test = H3K9me3 demethylation, FDH-coupled; setting = concentration not given; inhibition = 14%
Compound = COc1nncc(-c2cnnc(SC)n2)n1; target = USP14; test = enzyme activity, inhibitor; setting = 17 µM; inhibition = 38%
Compound = C=CC(=O)Nc1cccc(-c2cnc3[nH]cc(C(=O)NC(C)(C)C)c3n2)c1; target = RPS6KB2 (Homo sapiens, UniProt Q9UBS0); test = enzyme activity, inhibitor; setting = 0.1 µM; inhibition = -8%
Compound = c1ccc(CSc2nnc(-c3ccco3)c(-c3ccco3)n2)cc1; target = Rac GTPase-activating protein 1; test = enzyme activity, inhibitor, ADP detection; setting = 10 µM; inhibition = 51.8%
Compound = CN(C)C/C=C/C(=O)Nc1ccc2nc(NCCCCCN(C)C)nc(NCCCCCCN(C)C)c2c1; target = SMYD3 (Homo sapiens, UniProt Q9H7B4); test = enzyme activity, inhibitor, radiometric; setting = 10 µM; inhibition = 2%
Compound = Cc1ccc(CNC(=O)[C@H](CCc2ccccc2)NC(=O)[C@H](CC(=O)NCC(C)(C)C)NC(=O)c2ccc(OCc3ccccc3)cc2)cc1; target = F12; test = enzyme activity, inhibitor; setting = 100 µM; inhibition = 34%
Compound = N=C(N)NCCCC(NC(=O)C(CC(=O)NO)Cc1ccc2ccccc2c1)C(=O)NC(Cc1c[nH]c2ccccc12)C(=O)NC(CCC(=O)O)C(N)=O (centres unmarked); target = MMP9 (Homo sapiens, UniProt P14780); setting = 1 µM; inhibition = 3%
Compound = Cc1ccc(CNC(=O)C(CCc2ccccc2)NC(=O)C(NC(=O)Cc2cccc(Oc3ccccc3)c2)C(C)O)cc1 (centres unmarked); target = Neutrophil elastase (ELANE, Homo sapiens, UniProt P08246); test = enzyme activity, inhibitor; setting = 100 µM; inhibition = -3%
Compound = CC(=O)C12NC(C)(C)CC1(C)C(=O)C1=C2c2c(c3c4n2C(C)(C)CC2=C4C4(CC(C)(C)NC(C)(C4)C2=O)CC3(C)C)C(=O)C(C)(C)N1 (single isomer, unassigned; (-)); target = SCN10A (Homo sapiens, UniProt Q9Y5Y9); test = sodium current, antagonist, whole-cell patch clamp; test system = HEK293T cells; setting = 10 µM, resting state (TP1); inhibition = 32.92 ± 0.06%

For quick reference, copied from above:
Compound = O=C1CC(=O)N(c2ccccc2)N1c1ccccc1; target = Rac GTPase-activating protein 1; test = GAP activity, malachite green phosphate; setting = concentration not given, orthogonal retest; inhibition = 47.5%
Compound = O=C(CSc1nnc2c(n1)CCCC2)c1ccc(N2CCCC2=O)cc1; target = USP14; test = enzyme activity, inhibitor; setting = 17 µM; inhibition = 58%
Compound = C=CC(=O)N1Cc2nc(-c3cc(-c4cc(Cl)cnc4Cl)c(F)cc3F)n(-c3ccncn3)c2C1; target = 5'-AMP-activated protein kinase catalytic subunit alpha-1, with beta2, gamma3 (PRKAA1, Homo sapiens, UniProt Q13131); test = kinome panel; setting = 1 µM; inhibition = 10.3%
